Results pooled from the literature.
A part holds a random share of what one study measured. Substitutions count along the parent as printed.

Set 1 — method: RNA Bind-n-Seq; form: RNA; matrix: in vitro; tested at: 365 nM; reference: no-protein control; direction: higher = stronger binding
Target: RNA binding protein fox-1 homolog 2, RRM domain, GST-SBP tag (RBFOX2, Homo sapiens, UniProt O43251-10, residues 100-194)
Notes: natural RNA segment, single round, ends assumed
Shared flanks, not repeated: GGGAGUUCUACAGUCCGACGAUC … UGGAAUUCUCGGGUGCCAA
Target sequence (chain): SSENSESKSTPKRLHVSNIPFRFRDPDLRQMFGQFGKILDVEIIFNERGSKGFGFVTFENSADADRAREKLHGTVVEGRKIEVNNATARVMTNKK
Sequence | RBNS enrichment (R)
CCGGCUGUGGGUCCACCCCAGCCGAGGGACUCCUGGCCUGCAUUGCGGGAUUGUCAGUGGCAUUUAGUUGAGAGUUGAGGGGCUUUGGCCUGAAAUAAACUGCAAGUAUU | 2.96
CAUUCGAAGGACAUCAGCGACCUUGGCUUGUUUAGGUGAUUUUACUUCCAGCUGCAGGUAGUCUUGACAAGGAGUGUUUAAACAGAAGGCUCAAGAUGCAUUCCUUGUGU | 0.546
GAAGUUUUAAUUGUUCUGACUAAACUUAGGAGUUGAGCUAGGAGUGCGUUCAUGGUUUCUUCACUAACAGAGGAAUUAUGCUUUGCACUACGUCCCUCCAAGUGAAGACA | 0.322
UCGUUGGUUUUUGUUUGUUUACUUGGUUUUCUCAUGUCCAGCACGGAGGUCUCCAGUUCACAAGAGCUUCCUGGGAAGGAUAAUAAUCAUGUUUGUAGGAAUCUCAUUCC | 0.562
UGCAGGAUGAUAGAUCUAACUUAUCAAUGUACUGUCACAGUACAUUAAUCGUUUUAUUUGAGUAGGUAAACAAAUUUGCACACUUUUCCCCAGUGAAUUCCCAACACCUU | 0.919
GUGCAGUCUCCAAAGCUUGACGUUGCUAAUGACACCUGCCUCGUUGCUUUGCUUAGUUGGCAAAAGCAGGAAAAGAGGUGACAGAGAAUGUUGACUCCAAGGUCCCUAGG | 0.253
UGGAGCCUUUGAGCAUGGUACGUGCUUACCUUUUUGUCUUGCUUUAGGCUAAUAAUAAUAAUAAAAAACCAAAAGGCAUCUUGUUGUGAUUUCUAUGCCAACAUCCUGCC | 0.49
GUCCACUUGUCUGGAAGAAUAACAAGAAAGCUGCUGCUUUCGAGAUCACCCGCCAGAGGCGGGGCACGAGGCACACUGUGUUAUACUGCAUGAGCCAUGAAUUGGGCUAG | 1.69
AGGAGGGUUUUGUUCUGUCUGUGUCGCCUCUCCGCCGCACAGAAUCGAUGUGUGUGAUAUUCAGAGACUGGAGGAGCUGCUGACAUUAUCCUGUGUUUAGAUGCUUUAAU | 2.84
CUCCUUCCCAUGUCCCUUUCACACCAAGGCGACUCAGACCUCUCAGAGACCCACUUUAUUCAGUUCUGUACAUAUGGGGACAUCGGCCCAAGCCCAGCCCACCUUAGCAU | 0.492
UCUCAAAAGACUGGCUUAAUUGGAAUAAAAUAGCUUUUUUUUUUUAAGUGUCCCAAAGAUAAGAUAUCUUGGGGUCCACCAUGAGCUUCCAGUUUCAGCCGAGGCAGCAG | 0.441
ACGGAUCCUGCCGAGAGCCACGGACAUGUGGUUACAGAGGCGCAGGAGGGGAUCCACACAGCUGCAACGUGAGGACAGAAUCAGUGCUGUGAAUGACAGCCUGCCACUCC | 0.678

Set 2 — method: RNA Bind-n-Seq; form: RNA; matrix: in vitro; tested at: not given; notes: RNA with constant flanks, ends assumed; reference: input RNA pool; direction: higher = stronger binding
Target: RING finger protein unkempt homolog, zinc fingers 1-6, GST-SBP tag (UNK, Homo sapiens, UniProt Q9C0B0, residues 30-357)
Shared flanks, not repeated: GGGAGUUCUACAGUCCGACGAUC … CAACAGAGGAUUGAGCAUCA
Construct (chain): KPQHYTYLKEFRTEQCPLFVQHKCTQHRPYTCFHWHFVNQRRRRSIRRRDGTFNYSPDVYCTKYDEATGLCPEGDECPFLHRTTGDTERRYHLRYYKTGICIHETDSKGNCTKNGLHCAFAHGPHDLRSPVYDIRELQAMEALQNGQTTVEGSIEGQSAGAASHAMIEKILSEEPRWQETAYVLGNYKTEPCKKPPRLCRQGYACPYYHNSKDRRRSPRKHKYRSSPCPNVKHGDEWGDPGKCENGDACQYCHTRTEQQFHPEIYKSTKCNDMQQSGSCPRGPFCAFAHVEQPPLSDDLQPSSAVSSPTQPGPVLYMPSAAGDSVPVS
Sequence | bound/input enrichment [ratio]
CCCCAAUACCAUUUGCAGGUCUGGAACUGCACUCUCUUUUUUAAAAAACAUGUAUACAUUUCCGGGCUGUAGAUUUAUUUUCCUGGUUUUGUUUUUCAUUGCUGACUUUUGAGCACAGAA | 1.54
UUGUAUCGCUCUUACCAUAUGCCUGUUUGCAAAUCAUGAUCUUCACUGGGCUGGAAUUUUAUCCGAUUUUUGUUUUGUUUUUCCCUUUUUUCUCCUAGGCUGUCACUCUGUUGUUCUCCC | 4.45
UCUUUUGAGGUAGUGGUGCUGGCUGAGCUGUUUGUAGAGAUGCUGCAGAGGGAUUUUGGCUACCGAAUUUAUAAGACGCUGCUGAGCCUUCCAGAAAAAGUUGUGUCUCCUCCUGAACCU | 0.138
GAGCAAAAACACAGGGAAGAACUGGAGCAAUUGAAGCAAUUGACUUUCAAGGACAGUAAGACCGAUUCUGUUGCUGUUAACAUUUCAAACUUGGUACUUGAGAAUCAACCACCUCGGAUU | 0.235
UCAUUUGGGCGUGUCAGAGAGUCGUUACCUGUCAAGUAUCACCUACAGAAUAAGACCGACUCCGUUCAAGAUGUAGAAAUUUCUGUGGAGCCCAGUGAUGCCUUCAUGUUCUCAGGUCUC | 0.164
UAAAGGGAAAAGGCUAAAGAUCCACCCGCGGUUGCAUUUUCUUCUCUGUUAUCACUCUGCUACCCCGACUGUGAGAGGCUUUGCCUUCAGUCAGAUUACAGAGAGCAGGGUCUGACAUUG | 0.0765

Set 3 — method: protein-binding microarray; form: double-stranded DNA, one strand shown; matrix: in vitro; tested at: 250 nM; notes: 60-bp whole probe; together with: salmon DNA 0.4 mg/ml; reference: random background probes; direction: higher = stronger binding; shared flanks, not repeated: GCCTAGCAC … GTCTTGATTCGCTTGACGCTGCTG
Target: Interferon regulatory factor 7, full length, phosphomimetic (IRF7, Homo sapiens, UniProt Q92985, residues 1-503, S101K/S471D/S472D/S475D/S476D/S477D/S483D/S484D/S487D)
Residues (chain): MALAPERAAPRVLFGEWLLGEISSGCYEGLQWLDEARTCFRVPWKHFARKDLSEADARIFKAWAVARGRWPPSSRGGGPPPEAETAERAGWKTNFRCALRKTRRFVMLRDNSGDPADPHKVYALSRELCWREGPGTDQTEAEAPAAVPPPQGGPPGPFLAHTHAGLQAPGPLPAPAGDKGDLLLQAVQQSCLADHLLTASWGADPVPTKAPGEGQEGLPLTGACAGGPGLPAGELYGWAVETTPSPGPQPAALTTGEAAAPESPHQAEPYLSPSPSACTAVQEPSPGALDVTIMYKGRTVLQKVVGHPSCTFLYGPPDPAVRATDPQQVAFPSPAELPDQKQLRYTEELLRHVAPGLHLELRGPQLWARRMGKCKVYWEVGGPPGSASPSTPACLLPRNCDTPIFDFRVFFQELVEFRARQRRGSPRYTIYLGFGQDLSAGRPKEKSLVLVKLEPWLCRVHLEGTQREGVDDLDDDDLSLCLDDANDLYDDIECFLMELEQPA
Sequence | log fluorescence
TCCATTTTCTAAATTCCCTAGTGCTAG | 1.69 z-score
GACTGTATCGACACTGGGGACGTGCTA | -0.225 z-score
TCAGGTTTCACTTTAAAACTGTGCTAG | 10.4 z-score
TCAGGTCTCGGACTGGGTTAGTGCTAG | 0.378 z-score
TTAGGTCTGGGTTTCGGTTAGTGCTAG | 6.47 z-score
GACGGTCTCGGTTTCGGGGCGTGCTAG | 6.49 z-score
TCATTTTTGCTTACGATGCAGTGCTAG | 0.815 z-score
TCATTCTTGGGACTCACACTGTGCTAG | 0.901 z-score
TTAGGTATCCTTCGCCTTTAGTGCTAG | 0.11 z-score
GACGGTTTCCTACTGATGACGTGCTAG | 1.38 z-score
GTCGGTATCGGTTTCGGGACGTGCTAG | 7.81 z-score
TTAGGTATCGGGTATTGGTTAGTGCTA | 0.695 z-score
CCACATTTGATAAATCTTTGTGTGCTA | 0.459 z-score
TGTAGCTGGAGAAGTAAAACGTGCTAG | -0.3 z-score
CTTTTTTTGGTAATAGTGAAGTGCTAG | 1.26 z-score
TTAGATTTCAGTCTCGATGAGTGCTAG | 0.488 z-score

Set 4 — target: CCNB1, cyclin fold, Cln2 fusion (human); method: yeast growth competition, sequencing; matrix: yeast; notes: weak parent motif; reference: not given; direction: higher = stronger binding
Starting sequence: RB1 docking peptide (human); PKPLKKLRFDIEG
Variant | normalised enrichment score
K5I | 0.782
P3Q | 0.551
F9R | 0.289
K2H | 0.497
F9G | 0.353
L7F | 1.22
P1Q | 0.429
E12F | 0.0692
P1M | 0.0902
E12K | -0.255
L7C | 1.44
F9I | -0.125
L4F | 1.2
K5N | 1.01
G13V | -0.418
K6H | 0.842

Set 5 — method: universal PBM; form: double-stranded DNA, one strand shown; matrix: in vitro; tested at: 600 nM; direction: higher = stronger binding
Target: Sal-like protein 4, full length isoform A (SALL4, Homo sapiens, UniProt Q9UJQ4, residues 1-1053)
UniProt Q9UJQ4, sequence (whole entry, looked up): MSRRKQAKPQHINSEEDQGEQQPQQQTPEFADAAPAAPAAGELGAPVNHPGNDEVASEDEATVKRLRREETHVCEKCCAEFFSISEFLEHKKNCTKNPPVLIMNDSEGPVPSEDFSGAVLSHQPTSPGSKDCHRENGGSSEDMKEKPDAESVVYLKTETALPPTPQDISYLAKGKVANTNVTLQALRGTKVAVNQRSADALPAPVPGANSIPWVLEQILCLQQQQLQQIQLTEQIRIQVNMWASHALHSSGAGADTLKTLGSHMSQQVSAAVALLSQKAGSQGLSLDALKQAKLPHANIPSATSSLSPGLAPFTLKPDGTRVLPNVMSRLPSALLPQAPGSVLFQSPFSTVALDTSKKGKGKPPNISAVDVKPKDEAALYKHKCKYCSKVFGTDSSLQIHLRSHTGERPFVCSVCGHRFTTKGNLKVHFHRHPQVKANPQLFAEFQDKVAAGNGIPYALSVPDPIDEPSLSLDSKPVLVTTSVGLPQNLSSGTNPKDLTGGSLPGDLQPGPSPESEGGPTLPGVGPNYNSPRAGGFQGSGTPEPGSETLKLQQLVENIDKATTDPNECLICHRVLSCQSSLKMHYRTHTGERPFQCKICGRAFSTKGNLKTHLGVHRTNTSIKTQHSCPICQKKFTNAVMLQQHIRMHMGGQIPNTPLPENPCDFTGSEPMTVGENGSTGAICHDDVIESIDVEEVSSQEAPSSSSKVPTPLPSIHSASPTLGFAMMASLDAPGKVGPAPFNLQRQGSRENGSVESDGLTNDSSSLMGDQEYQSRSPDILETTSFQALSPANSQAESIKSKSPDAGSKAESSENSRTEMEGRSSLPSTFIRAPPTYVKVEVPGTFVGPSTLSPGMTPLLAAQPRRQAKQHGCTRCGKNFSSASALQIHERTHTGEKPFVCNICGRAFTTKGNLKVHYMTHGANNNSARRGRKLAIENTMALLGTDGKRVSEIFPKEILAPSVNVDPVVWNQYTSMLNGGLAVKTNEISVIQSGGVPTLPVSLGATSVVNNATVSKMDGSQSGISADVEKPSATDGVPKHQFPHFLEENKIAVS
Notes: 8-mer, flanks averaged, mean of replicates
Sequence | E-score
TACTGCGA | 0.00216
GGAGCAAC | -0.25
AATACCCT | -0.0903
CAAGTGAC | -0.0652
CCTATGGA | -0.0441
CACCCTGA | -0.195
CAAAATCA | 0.189
GGCACTAA | -0.0958
ACAACCGA | 0.00587
ACTACAAA | 0.168
GATGGCGA | 0.0504
GATTCAAC | -0.163
ACCAACGA | -0.0589
ACCGAACT | -0.178
CATCTATC | 0.0722
ACCCTCTC | -0.251
CAAGACGA | 0.0021
CGCAAGCA | 0.062
ATTTGGGA | 0.124
GGTATGCA | -0.0605
CAATCTCG | -0.025
AAGGGTGG | -0.186
GTTAATAA | 0.392

Set 6 — target: FOSL1, bZIP domain (human); method: DHFR protein complementation; matrix: yeast; reference: wild-type JUN-FOS pair; direction: higher = stronger binding
Notes: single substitutions, most at no-binding floor
Starting sequence: JUN, bZIP domain (human); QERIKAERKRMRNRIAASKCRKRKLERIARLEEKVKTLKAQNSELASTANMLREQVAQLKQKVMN; partner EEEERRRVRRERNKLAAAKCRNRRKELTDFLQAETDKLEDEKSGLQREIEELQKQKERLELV
Variant | binding fitness [natural log]
E44G | -0.757
L59S | -1.16
V56G | -1.38
E32Q | -0.467
L52S | -1.46
S47H | -0.33
A29C | -0.687
Q41C | -1.45
E54Y | -0.628
E33N | -0.61
Q41E | -0.303
M51V | -0.412

Set 7 — method: protein binding microarray; form: double-stranded DNA, one strand shown; matrix: in vitro; tested at: not given; reference: not given; direction: higher = stronger binding
Target: Histone acetyltransferase KAT6A, winged helix 1, GST fusion (KAT6A, Homo sapiens, UniProt Q92794, residues 1-85)
Notes: 8-mer, flanks averaged, mean of 2 arrays, mostly near background
Residues (chain): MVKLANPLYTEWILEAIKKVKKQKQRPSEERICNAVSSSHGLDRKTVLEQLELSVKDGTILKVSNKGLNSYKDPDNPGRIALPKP
Sequence | E-score
ACCGTTGA | -0.0113
CGACGTGA | 0.0478
AGACAATA | 0.0145
GCATTATA | 0.0603
ATCTCCTC | -0.114
CTCGCGAG | 0.108
AAGAGGAG | -0.147
AGGCGCAT | 0.26
ACCCAAGT | -0.243
GTCCCGAC | 0.272
ACACGAAT | -0.19
AGGCAATC | -0.223
TACCACCA | -0.24
GAAAGCGC | 0.409
CCCAACAG | -0.257
GCCGAGAA | 0.243
AGTAAAAA | -0.0839
AAGAGGAA | -0.207
AGATTCGC | 0.132
GTCTTCGA | -0.044
GCCAGCAA | -0.151
ATGAATCA | -0.114
AGGGCTGC | -0.0767
CCGATGTA | 0.112
TTCGAAAA | -0.0716

Some of these lines once more (set 7):
Sequence | E-score
AAGAGGAG | -0.147
CGACGTGA | 0.0478
AGTAAAAA | -0.0839
AGACAATA | 0.0145
ACCCAAGT | -0.243
CCGATGTA | 0.112
GTCTTCGA | -0.044
ATGAATCA | -0.114
GCATTATA | 0.0603
CCCAACAG | -0.257
GCCAGCAA | -0.151
ACCGTTGA | -0.0113
AGGCAATC | -0.223
AGATTCGC | 0.132
ACACGAAT | -0.19
TACCACCA | -0.24
AGGGCTGC | -0.0767
CTCGCGAG | 0.108
GCCGAGAA | 0.243
